Published values pooled from the literature.
Compare with care: the assays were run in different laboratories.
Target: Dual specificity mitogen-activated protein kinase kinase 1 (MAP2K1, Homo sapiens, UniProt Q02750)

SMILES	assay	test system	conditions	scale	measurement	value
C=CC(=O)Nc1cccc(-c2cnc3[nH]cc(C(=O)NC(C)(C)C)c3n2)c1	enzyme activity, inhibitor	–	0.1 µM	–	inhibition	5%
NC(=O)[C@@H](O)C[C@H]1CCc2sc3ncnc(O[C@H]4CC[C@H](N5CCOCC5)CC4)c3c21	enzyme activity, inhibitor	–	10 µM	–	inhibition	8%
Cc1c[nH]c2nccc(-c3ccc(C(=O)N[C@@H]4c5c(F)cc(C(F)F)cc5C[C@@H]4O)cn3)c12	binding, competition with immobilised ligand	–	3 µM	–	remaining binding	0.3%
Cc1cccc(-c2ccc3nc(NC(=O)C4CCCO4)nn3c2)c1 (stereo not shown)	enzyme activity, Dundee kinase panel	–	10 µM	–	remaining activity	47%
Nc1ncc2c(n1)-c1c([nH]c3ccc(C4=CCOCC4)cc13)CCC2	binding, competition with immobilised ligand	–	1 µM	–	remaining binding	100%
O=C(O)CCC(=O)c1cccc(NS(=O)(=O)c2c[nH]c3ncccc23)c1	kinase activity, radiometric	–	10 µM	–	remaining activity	107%
CNC(=O)C1CCN(c2cc(C)c(F)cc2NC(=O)c2ccc(-c3cc(O)ccc3C)c(C)c2)CC1	binding, competition with immobilised ligand	–	1 µM	–	remaining binding	82%
COc1ccc(O)cc1-c1c[nH]c2ncc(-c3cncc(C(=O)N(C)C)c3)cc12	binding, competition with immobilised ligand	–	0.2 µM	–	inhibition	5.5%
O=C=[N][Ru-4]123([n]4c5ccc(O)cc5c5c6c(c7cc(F)c[n+]1c7c54)C(=O)NC6=O)[S+]1CC[S+]2CC[S+]3CC1 (stereo not shown)	enzyme activity	–	100 nM, human enzyme, with: 10 µM ATP	reference: untreated	remaining activity	103%
C=CC(=O)N1CCCC(n2c(=O)c3ncccc3n(Cc3ccc(Oc4ccccc4)cc3)c2=O)C1 (stereo not shown)	cell-free assay, competition with immobilised ligand	–	1 µM	–	remaining binding	73%
O=C(Cc1ccc(OCc2ccccc2)cc1)NC1(C(=O)O)CCN(C(=O)c2ccc(-c3cccc(Cl)c3)cc2)CC1	enzyme activity, inhibitor	–	10 µM	–	activity vs control	112%
COc1ccc(NC(=O)Nc2ccc3c(c2)C(=O)N(C(C)CO)CC(C)C(CN(C)Cc2ccc4c(c2)OCO4)O3)cc1 (stereo not shown)	binding, competition with immobilised ligand	–	10 µM	–	remaining binding	71%
CN1CCN(Cc2ccc(NC(=O)c3cccc(C#Cc4cnc(N)c5ncccc45)c3)cc2C(F)(F)F)CC1	cell-free assay, competition with immobilised ligand	–	50 nM	–	remaining binding	76%
C=C1CCCCCCCCCC(CO)C1=O (stereo not shown)	cell-free assay, competition with immobilised ligand	–	10 µM	–	remaining binding	71%
Cc1cccc(-c2ccc3nc(NC(=O)C4CCOCC4)nn3c2)c1	enzyme activity, Dundee kinase panel	–	10 µM	–	remaining activity	43%
CC(=O)N1c2ccc(-c3ccc(CNC(=O)c4cn5cc(-c6cnc(N)nc6)nc(N6CCOCC6)c5n4)cc3)cc2CC[C@@H]1C	KINOMEscan	–	10 µM	–	remaining binding	86%
C=CC(=O)Nc1cc(-c2nn(C3CCN(CCNC(=O)[C@H](C)CCC45CC6CC(CC(C6)C4)C5)CC3)c3ncnc(N)c23)ccc1Oc1ccccc1	inhibitor, KiNativ profiling	biochemical	2 µM	–	inhibition	5.1%
Cc1nc2c(F)cc(-c3nc(Nc4ccc(CNC(=O)CCCCCCC(=O)NO)cc4)ncc3F)cc2n1C(C)C	enzyme activity, inhibitor	–	1 µM	–	inhibition	54%
COc1cc(Nc2nccc(-c3cnn4nc(OC)ccc34)n2)cc(C(F)(F)F)c1	binding, competition with immobilised ligand	–	1 µM	–	remaining binding	89%
CNS(=O)(=O)Nc1nccc(Cc2c(C)c3ccc(Oc4ncccc4F)cc3oc2=O)c1F	binding, competition with immobilised ligand	–	10 µM	–	remaining binding	0%
CN1CC[C@@H](COc2cnc(C#N)cc2-c2ccn3nc(NC(=O)C4CC4)cc3c2)C1	enzyme activity, inhibitor	–	1 µM	–	inhibition	9%
CCOC(=O)c1ccc2n[nH]cc2c1	thermal stability, DSF	–	500 µM	–	ΔTm	0.8 °C
Cc1cccc(O[C@H]2CCC[C@@H](C(C)CNCc3ccncc3)C2)c1 (relative stereo)	enzyme activity, inhibitor	–	1 µM	–	inhibition	2%
COc1cc(-n2cc3cc(F)cc(C(N)=O)c3n2)cc(Cl)c1C1CC(O)(CCO)Cc2ccccc21 (stereo not shown)	enzyme activity, inhibitor	–	10 µM	–	inhibition	0.85%
COc1c(Cl)cccc1Nc1c(-c2ccncc2C#C[C@@]2(C)CCCN2C(=O)/C=C/CN(C)C)[nH]c2c1C(=O)NCC2	binding, competition with immobilised ligand	–	3 µM	–	remaining binding	95%

For quick reference, copied from above:
SMILES	assay	test system	conditions	scale	measurement	value
C=CC(=O)N1CCCC(n2c(=O)c3ncccc3n(Cc3ccc(Oc4ccccc4)cc3)c2=O)C1 (stereo not shown)	cell-free assay, competition with immobilised ligand	–	1 µM	–	remaining binding	73%
CNS(=O)(=O)Nc1nccc(Cc2c(C)c3ccc(Oc4ncccc4F)cc3oc2=O)c1F	binding, competition with immobilised ligand	–	10 µM	–	remaining binding	0%
